Measurements of several laboratories.
Each line is one published result; not all experiments were run side by side. ± gives the spread as reported.

C[C@@H](O)[C@H](NC(=O)[C@@H]1CSSC[C@H](NC(=O)[C@@H](Cc2ccccc2)NC(=O)CN2CCN(CC(N)=O)CCN(CC(N)=O)CCN(CC(N)=O)CC2)C(=O)N[C@@H](Cc2ccc(O)cc2)C(=O)N[C@H](Cc2c[nH]c3ccccc23)C(=O)N[C@@H](CCCCN)C(=O)N[C@@H]([C@@H](C)O)C(=O)N1)C(=O)O [lead-212 labelled]  mortality (CD-1 mice; 1 x 40 µCi, nine days): ~40%
N=C(N)NCCC[C@@H]1NC(=O)[C@H](CCCCNC(=O)CC[C@H](NC(=O)CCOCCOCCOCCOCCNC(=O)CC[C@H](NC(=O)CN2CCN(CC(=O)O)CCN(CC(=O)O)CCN(CC(=O)O)CC2)C(=O)NCCOCCOCCOCCOCCC(=O)N[C@@H](CCC(=O)NCCCC[C@@H]2NC(=O)[C@@H](Cc3ccccc3)NC(=O)[C@H](CC(=O)O)NC(=O)CNC(=O)[C@H](CCCNC(=N)N)NC2=O)C(=O)NCCCC[C@@H]2NC(=O)[C@@H](Cc3ccccc3)NC(=O)[C@H](CC(=O)O)NC(=O)CNC(=O)[C@H](CCCNC(=N)N)NC2=O)C(=O)NCCCC[C@@H]2NC(=O)[C@@H](Cc3ccccc3)NC(=O)[C@H](CC(=O)O)NC(=O)CNC(=O)[C@H](CCCNC(=N)N)NC2=O)NC(=O)[C@@H](Cc2ccccc2)NC(=O)[C@H](CC(=O)O)NC(=O)CNC1=O [indium-111 labelled]  log P (octanol/water): -3.87 ± 0.11
CCCC[C@@H](NC(=O)[C@H](Cc1c[nH]c2ccccc12)NC(=O)[C@@H](N)CSC1CC(=O)N(CC2CCC(C(=O)N[C@H]3C[C@H](O[C@H]4C[C@](O)(C(=O)CO)Cc5c(O)c6c(c(O)c54)C(=O)c4c(OC)cccc4C6=O)O[C@@H](C)[C@H]3O)CC2)C1=O)C(=O)N[C@@H](CCC(=O)O)C(=O)N[C@@H](C)C(=O)N[C@@H](C)C(=O)N[C@@H](Cc1ccc(O)cc1)C(=O)N[C@@H](CCC(N)=O)C(=O)N[C@H](CCCNC(=N)N)C(=O)N[C@@H](Cc1ccccc1)C(=O)N[C@@H](CC(C)C)C(N)=O (some centres unmarked)  half-life (chemical stability; PBS; 100 µM, pH 5): 24 h
N=C(N)NCCC[C@@H]1NC(=O)[C@H](CCCCNC(=O)CCOCCOCCOCCOCCNC(=O)CN2CCN(CC(=O)O)CCN(CC(=O)O)CCN(CC(=O)O)CC2)NC(=O)[C@@H](Cc2ccccc2)NC(=O)[C@H](CC(=O)O)NC(=O)CNC1=O [indium-111 labelled]  log P (octanol/water): -3.48 ± 0.12
CC(C)C[C@H](NC(=O)[C@@H]1CCCN1C(=O)[C@H](CCCCN)NC(=O)[C@@H](N)CO)C(=O)N1CCC[C@H]1C(=O)N[C@@H](CCC(=O)O)C(=O)N[C@H](C(=O)N[C@H](C(=O)N[C@@H](CC(=O)O)C(=O)N[C@@H](CCC(=O)O)C(=O)N[C@@H](Cc1ccc(O)cc1)C(=O)N[C@@H](Cc1cn(CCOCCOCCOCCNC(=O)CCc2ccc(O)c(CN(CCN(CC(=O)O)Cc3cc(CCC(=O)NCCCC[C@H](NC(=O)N[C@@H](CCC(=O)O)C(=O)O)C(=O)O)ccc3O)CC(=O)O)c2)nn1)C(=O)O)[C@@H](C)O)C(C)C [gallium-68 labelled]  standardized uptake value (NMRI nu/nu mice, LNCaP tumour, brain; 10 MBq, high molar activity): 0.01 g/g
CSCC[C@H](NC(=O)[C@H](CC(C)C)NC(=O)[C@H](Cc1c[nH]cn1)NC(=O)CNC(=O)[C@@H](NC(=O)[C@H](C)NC(=O)[C@H](Cc1c[nH]c2ccccc12)NC(=O)[C@H](CCC(N)=O)NC(=O)CCCCCNC(=O)CNC(=O)CNC(=O)CNC(=O)CSC(C)=O)C(C)C)C(N)=O [technetium-99m labelled]  tissue uptake (Swiss mouse, kidney; intravenous, 18.5 MBq, 240 min): 0.29 ± 0.03 %ID/g
CCCC[C@H](NC(=O)CNC(=O)CNC(=O)c1ccc(NN)nc1)C(=O)N[C@H]1CC(=O)NCCCC[C@@H](C(N)=O)NC(=O)[C@H](Cc2c[nH]c3ccccc23)NC(=O)[C@H](CCCNC(=N)N)NC(=O)[C@@H](Cc2ccccc2)NC(=O)[C@H](Cc2c[nH]cn2)NC1=O [technetium-99m labelled]  tissue uptake (C57 mouse, B16/F1 melanoma-bearing, heart; intravenous, 24 h): 0.02 ± 0.02 %ID/g
CC(C)C[C@H](NC(=O)[C@H](C)N)C(=O)N[C@@H](CC(C)C)C(=O)N[C@@H](C)C(=O)N[C@@H](CC(N)=O)C(=O)N[C@@H](Cc1c[nH]cn1)C(=O)N[C@@H](CCC(=O)O)C(=O)N[C@@H](CCC(=O)O)C(=O)N[C@@H](CC(C)C)C(=O)N[C@@H](Cc1ccccc1)C(=O)N[C@@H](CCC(N)=O)C(=O)N[C@H](C(=O)NCC(=O)NCC(=O)NCC(=O)N[C@@H](CO)C(=O)N[C@@H](CSC1CC(=O)N(CCNC(=O)CCCCCN2C(=CC=C3CCCC(C=CC4=[N+](CCCCS(=O)(=O)[O-])c5ccc(S(=O)(=O)O)cc5C4(C)C)=C3Oc3ccc(S(=O)(=O)O)cc3)C(C)(C)c3cc(S(=O)(=O)O)ccc32)C1=O)C(=O)O)[C@@H](C)O (some centres unmarked)  half-life (RP-HPLC; mouse serum; 15 µM, 37 °C): 3.5 h
C[C@@H](O)[C@H](NC(=O)[C@@H]1CSSC[C@H](NC(=O)[C@@H](Cc2ccccc2)NC(=O)CN2CCCN3CCN(CCCN(CP(=O)(O)O)CC3)CC2)C(=O)N[C@@H](Cc2ccc(O)cc2)C(=O)N[C@H](Cc2c[nH]c3ccccc23)C(=O)N[C@@H](CCCCN)C(=O)N[C@@H]([C@@H](C)O)C(=O)N1)C(=O)O [copper-64 labelled]  activity cleared from liver (male Lewis rat, AR-42J tumour-bearing; dose not given, 1 to 24 h): 75%
N=C(N)NCCC[C@@H]1NC(=O)[C@H](CCCCNC(=O)CCOCCOCCOCCOCCNC(=O)CC[C@H](NC(=O)CCOCCOCCOCCOCCNC(=O)CC[C@H](NC(=O)CN2CCN(CC(=O)O)CCN(CC(=O)O)CCN(CC(=O)O)CC2)C(=O)NCCOCCOCCOCCOCCC(=O)N[C@@H](CCC(=O)NCCOCCOCCOCCOCCC(=O)NCCCC[C@@H]2NC(=O)[C@@H](Cc3ccccc3)NC(=O)[C@H](CC(=O)O)NC(=O)CNC(=O)[C@H](CCCNC(=N)N)NC2=O)C(=O)NCCOCCOCCOCCOCCC(=O)NCCCC[C@@H]2NC(=O)[C@@H](Cc3ccccc3)NC(=O)[C@H](CC(=O)O)NC(=O)CNC(=O)[C@H](CCCNC(=N)N)NC2=O)C(=O)NCCOCCOCCOCCOCCC(=O)NCCCC[C@@H]2NC(=O)[C@@H](Cc3ccccc3)NC(=O)[C@H](CC(=O)O)NC(=O)CNC(=O)[C@H](CCCNC(=N)N)NC2=O)NC(=O)[C@@H](Cc2ccccc2)NC(=O)[C@H](CC(=O)O)NC(=O)CNC1=O [indium-111 labelled]  tumour to tissue ratio (athymic nude mice, female, U-87 MG glioma xenograft, tumour and kidney; intravenous, 24 h; relative to: tumour over kidney): 1.6 ± 0.39
CC(C)C[C@@H]1NC(=O)[C@H](C(C)C)NC(=O)[C@H](CO)NC(=O)CNC(=O)CNC(=O)[C@H](CCCNC(=N)N)NC(=O)[C@@H]2CCCN2C(=O)[C@@H](NC(=O)CC[C@H](NC(=O)c2ccc(N(C)Cc3cnc4nc(N)nc(N)c4n3)cc2)C(=O)O)C(C)(C)SSC[C@@H](C(=O)O)NC(=O)CNC(=O)[C@H]([C@@H](C)O)NC(=O)[C@H](C(C)C)NC1=O  half-life (phosphate buffer; 100 µM, pH 8.0, 70 °C): 224 h
CC[C@H](C)[C@@H]([C@@H](CC(=O)N1CCC[C@H]1[C@H](OC)[C@@H](C)C(=O)N[C@H](C)[C@@H](O)c1ccccc1)OC)N(C)C(=O)[C@@H](NC(=O)[C@H](C(C)C)N(C)C(=O)OCc1ccc(NC(=O)[C@H](CCCNC(N)=O)NC(=O)[C@@H](NC(=O)CCCc2cn(CC(=O)N[C@@H](CCCCNC(=O)CC[C@H](NC(=O)c3ccc(NCc4cnc5nc(N)[nH]c(=O)c5n4)cc3)C(=O)O)C(=O)NCCCC[C@H]3NC(=O)[C@H](CCCCN)NC(=O)[C@H](CCCNC(N)=O)NC(=O)[C@H](Cc4ccc(O)cc4)NC(=O)[C@@H](NC(=O)[C@H](Cc4ccc5ccccc5c4)NC(=O)[C@H](CCCNC(=N)N)NC(=O)[C@@H](N)CCCNC(=N)N)CSSC[C@@H](C(=O)N[C@@H](CCCNC(=N)N)C(N)=O)NC(=O)[C@H](CCCNC(N)=O)NC(=O)[C@H](CCCNC(=N)N)NC(=O)[C@H](Cc4ccc(O)cc4)NC(=O)[C@@H]4CCCN4C3=O)nn2)C(C)C)cc1)C(C)C  half-life (mouse serum; 0.5 mmol/L, 37 °C): 16.9 h
N=C(N)NCCC[C@@H]1NC(=O)[C@H](CCCCNC(=O)CC[C@H](NC(=O)CCOCCOCCOCCOCCNC(=O)CN2CCN(CC(=O)O)CCN(CC(=O)O)CCN(CC(=O)O)CC2)C(=O)NCCCC[C@@H]2NC(=O)[C@@H](Cc3ccccc3)NC(=O)[C@H](CC(=O)O)NC(=O)CNC(=O)[C@H](CCCNC(=N)N)NC2=O)NC(=O)[C@@H](Cc2ccccc2)NC(=O)[C@H](CC(=O)O)NC(=O)CNC1=O [indium-111 labelled]  tissue uptake (female athymic nude mice, kidney; intravenous, 3 µCi, 1 h, U-87 MG glioma xenograft): 4.45 ± 0.21 %ID/g
CCCC[C@H](NC(=O)CNC(=O)[C@H](CO)NC(=O)CNC(=O)c1ccc(NN)nc1)C(=O)N[C@H]1CC(=O)NCCCC[C@@H](C(N)=O)NC(=O)[C@H](Cc2c[nH]c3ccccc23)NC(=O)[C@H](CCCNC(=N)N)NC(=O)[C@@H](Cc2ccccc2)NC(=O)[C@H](Cc2c[nH]cn2)NC1=O [technetium-99m labelled]  uptake (C57 mouse, B16/F1 melanoma, kidneys; intravenous, 2 h): 3.9 ± 1.01 %ID/g
CSCC[C@H](NC(=O)[C@H](CC(C)C)NC(=O)[C@H](Cc1c[nH]cn1)NC(=O)CNC(=O)[C@@H](NC(=O)[C@H](C)NC(=O)[C@H](Cc1c[nH]c2ccccc12)NC(=O)[C@H](CCC(N)=O)NC(=O)CNC(=O)[C@H](CO)NC(=O)CNC(=O)CCCCCCCNC(=O)CCC(=O)Nc1ccc(CNC23CNCCNCC(N)(CNCCNC2)CNCCNC3)cc1)C(C)C)C(N)=O [copper-64 labelled]  blood radioactivity remaining (mice, PC-3 xenograft; dose not given, 24 h; relative to: level at 1 h): 3%
CCCC[C@H](NC(=O)CCCCCCCNC(=O)c1ccc(NN)nc1)C(=O)N[C@H]1CC(=O)NCCCC[C@@H](C(N)=O)NC(=O)[C@H](Cc2c[nH]c3ccccc23)NC(=O)[C@H](CCCNC(=N)N)NC(=O)[C@@H](Cc2ccccc2)NC(=O)[C@H](Cc2c[nH]cn2)NC1=O [technetium-99m labelled]  tissue uptake (C57 mouse, B16/F1 melanoma, intestines; intravenous, 0.037 MBq, 24 h): 0.32 ± 0.09 %ID
N=C(N)NCCC[C@@H]1NC(=O)[C@H](CCCCNC(=O)CNC(=O)CNC(=O)CNC(=O)CC[C@H](NC(=O)CCOCCOCCOCCOCCNC(=O)CC[C@H](NC(=O)CN2CCN(CC(=O)O)CCN(CC(=O)O)CCN(CC(=O)O)CC2)C(=O)NCCOCCOCCOCCOCCC(=O)N[C@@H](CCC(=O)NCC(=O)NCC(=O)NCC(=O)NCCCC[C@@H]2NC(=O)[C@@H](Cc3ccccc3)NC(=O)[C@H](CC(=O)O)NC(=O)CNC(=O)[C@H](CCCNC(=N)N)NC2=O)C(=O)NCC(=O)NCC(=O)NCC(=O)NCCCC[C@@H]2NC(=O)[C@@H](Cc3ccccc3)NC(=O)[C@H](CC(=O)O)NC(=O)CNC(=O)[C@H](CCCNC(=N)N)NC2=O)C(=O)NCC(=O)NCC(=O)NCC(=O)NCCCC[C@@H]2NC(=O)[C@@H](Cc3ccccc3)NC(=O)[C@H](CC(=O)O)NC(=O)CNC(=O)[C@H](CCCNC(=N)N)NC2=O)NC(=O)[C@@H](Cc2ccccc2)NC(=O)[C@H](CC(=O)O)NC(=O)CNC1=O [indium-111 labelled]  tissue uptake (female athymic nude mice, spleen; intravenous, 3 µCi, 1 h, U-87 MG glioma xenograft): 2.02 ± 0.34 %ID/g

Repeated from above:
CCCC[C@@H](NC(=O)[C@H](Cc1c[nH]c2ccccc12)NC(=O)[C@@H](N)CSC1CC(=O)N(CC2CCC(C(=O)N[C@H]3C[C@H](O[C@H]4C[C@](O)(C(=O)CO)Cc5c(O)c6c(c(O)c54)C(=O)c4c(OC)cccc4C6=O)O[C@@H](C)[C@H]3O)CC2)C1=O)C(=O)N[C@@H](CCC(=O)O)C(=O)N[C@@H](C)C(=O)N[C@@H](C)C(=O)N[C@@H](Cc1ccc(O)cc1)C(=O)N[C@@H](CCC(N)=O)C(=O)N[C@H](CCCNC(=N)N)C(=O)N[C@@H](Cc1ccccc1)C(=O)N[C@@H](CC(C)C)C(N)=O (some centres unmarked)  half-life (chemical stability; PBS; 100 µM, pH 5): 24 h
N=C(N)NCCC[C@@H]1NC(=O)[C@H](CCCCNC(=O)CNC(=O)CNC(=O)CNC(=O)CC[C@H](NC(=O)CCOCCOCCOCCOCCNC(=O)CC[C@H](NC(=O)CN2CCN(CC(=O)O)CCN(CC(=O)O)CCN(CC(=O)O)CC2)C(=O)NCCOCCOCCOCCOCCC(=O)N[C@@H](CCC(=O)NCC(=O)NCC(=O)NCC(=O)NCCCC[C@@H]2NC(=O)[C@@H](Cc3ccccc3)NC(=O)[C@H](CC(=O)O)NC(=O)CNC(=O)[C@H](CCCNC(=N)N)NC2=O)C(=O)NCC(=O)NCC(=O)NCC(=O)NCCCC[C@@H]2NC(=O)[C@@H](Cc3ccccc3)NC(=O)[C@H](CC(=O)O)NC(=O)CNC(=O)[C@H](CCCNC(=N)N)NC2=O)C(=O)NCC(=O)NCC(=O)NCC(=O)NCCCC[C@@H]2NC(=O)[C@@H](Cc3ccccc3)NC(=O)[C@H](CC(=O)O)NC(=O)CNC(=O)[C@H](CCCNC(=N)N)NC2=O)NC(=O)[C@@H](Cc2ccccc2)NC(=O)[C@H](CC(=O)O)NC(=O)CNC1=O [indium-111 labelled]  tissue uptake (female athymic nude mice, spleen; intravenous, 3 µCi, 1 h, U-87 MG glioma xenograft): 2.02 ± 0.34 %ID/g
